{"data": "Measured values gathered from unrelated publications", "cell line": "RAW264.7", "note": "Lines come from different studies, so protocols differ. ± gives the spread as reported."}
{"Structure (SMILES)": "Fc1cc(F)cc(-c2cc3ccccc3[nH]2)c1", "assay": "NO release, inhibitor, Griess", "conditions": "50 µM, 20 h, LPS-stimulated", "quantity": "inhibition", "value": "23.5%"}
{"Structure (SMILES)": "COc1cc(/C=C/c2ccc(O)cc2)cc(OC)c1", "assay": "NO release, inhibitor", "conditions": "LPS-stimulated", "quantity": "IC50", "value": "9.9 µg/mL"}
{"Structure (SMILES)": "Cc1ccccc1-c1cc2ccccc2[nH]1", "assay": "NO release, inhibitor, Griess", "conditions": "50 µM, 20 h, LPS-stimulated", "quantity": "inhibition", "value": "97.5%"}
{"Structure (SMILES)": "CCN(CC)C(=O)Cc1c(-c2ccc(OCC[18F])cc2)nn2c(C)cc(C)nc12", "conditions": "1 h efflux, 37 °C", "how to read": "relative to: added dose", "quantity": "tracer retention after efflux", "value": "21.6 ± 2.05%"}
{"Structure (SMILES)": "Clc1ccc2cc(-c3ccccc3)[nH]c2c1", "assay": "sulforhodamine B", "conditions": "50 µM, 20 h", "how to read": "relative to: vehicle", "quantity": "viability", "value": "74 ± 11.9%"}
{"Structure (SMILES)": "O=C(CSc1nnc(-c2ccc(NC(=O)c3cccnc3)cc2)o1)Nc1ccc(F)cc1", "assay": "reactive oxygen species, inhibitor, fluorescence", "conditions": "LPS-stimulated", "quantity": "IC50", "value": "67.2 µM"}
{"Structure (SMILES)": "O=C(O)[C@H]1Cc2c([nH]c3ccccc23)CN1CC1CC1", "assay": "NO release, inhibitor, Griess", "conditions": "50 µM, LPS-stimulated", "quantity": "inhibition", "value": "-10.3%"}
{"Structure (SMILES)": "c1ccc(C2Cc3ccccc3N2)cc1 (stereo not drawn)", "assay": "NO release, inhibitor, Griess", "conditions": "50 µM, 20 h, LPS-stimulated", "quantity": "inhibition", "value": "35%"}
{"Structure (SMILES)": "CC(C)C[C@H](NC(=O)[C@H](CC(C)C)NC(=O)[C@H](CCCCN)NC(=O)[C@H](CC(C)C)NC(=O)[C@@H]1CCCN1C(=O)[C@H](CCCCN)NC(=O)[C@H](CCCCN)NC(=O)[C@H](CC(C)C)NC(=O)[C@H](CC(C)C)NC(=O)[C@H](CCCCN)NC(=O)[C@H](CCCCN)NC(=O)[C@H](Cc1c[nH]c2ccccc12)NC(=O)[C@H](CCCCN)NC(=O)CNC(=O)CNC(=O)CNC(=O)[C@H](CCCNC(=N)N)NC(=O)[C@H](CCCNC(=N)N)NC(=O)[C@H](CCCNC(=N)N)NC(=O)[C@H](CCCNC(=N)N)NC(=O)[C@H](CCCNC(=N)N)NC(=O)[C@H](CCCNC(=N)N)NC(=O)[C@H](CCCNC(=N)N)NC(=O)[C@H](CCCNC(=N)N)NC(=O)[C@@H](N)CCCNC(=N)N)C(=O)N[C@@H](CCCCN)C(=O)N[C@@H](CCCCN)C(N)=O", "assay": "ELISA", "conditions": "2 µM, with: LPS 20 ng/mL", "quantity": "TNF-α release", "value": "inhibited"}
{"Structure (SMILES)": "COc1ccc(S(=O)(=O)Nc2ccc(N(CC(=O)N3CCSC3=O)S(=O)(=O)c3ccc(OC)cc3)c3ccccc23)cc1", "assay": "NO production, inhibitor", "conditions": "with: LPS 20 ng/mL", "quantity": "EC50", "value": "0.12 µM"}
{"Structure (SMILES)": "Nn1c(SCC(=O)Nc2cccc(Br)c2)nnc1-c1ccc(NC(=O)c2cccnc2)cc1", "assay": "TNF-α release, inhibitor, ELISA", "conditions": "LPS-stimulated", "quantity": "IC50", "value": "3.01 µM"}
{"Structure (SMILES)": "C[C@@H]1C[C@H]2[C@@H]3CCC4=CC(=O)C=C[C@]4(C)[C@@]3(F)[C@@H](O)C[C@]2(C)[C@@]1(O)C(=O)CO", "assay": "Griess", "conditions": "0.5 µM, 1 h pretreatment, with: LPS 10 ng/mL, 24 h", "how to read": "relative to: LPS alone", "quantity": "NO production", "value": "38.1 ± 3.15%"}
{"Structure (SMILES)": "CC(=O)c1ccc(NC(=O)CSc2nnc(-c3ccc(NC(=O)c4cccnc4)cc3)n2N)cc1", "assay": "reactive oxygen species, inhibitor, fluorescence", "conditions": "LPS-stimulated", "quantity": "IC50", "value": "9.69 µM"}
{"Structure (SMILES)": "Fc1ccc(-c2cc3ccccc3[nH]2)cc1", "assay": "sulforhodamine B", "conditions": "50 µM, 20 h", "how to read": "relative to: vehicle", "quantity": "viability", "value": "69.7 ± 3.7%"}
{"Structure (SMILES)": "COC(=O)[C@@H]1Cc2c([nH]c3ccccc23)CN1C(=O)OCC(C)C", "assay": "NO release, inhibitor, Griess", "conditions": "50 µM, LPS-stimulated", "quantity": "inhibition", "value": "11.1%"}
{"Structure (SMILES)": "O=C(O)Cc1ccccc1Nc1c(Cl)cccc1Cl", "assay": "NO release, inhibitor, Griess", "conditions": "LPS-stimulated", "quantity": "IC50", "value": "29 µM"}
{"Structure (SMILES)": "C[C@H]1[C@H](C)CC[C@]2(C(=O)O)CC[C@]3(C)C(=CC[C@@H]4[C@@]5(C)CC[C@H](O)C(C)(C)[C@@H]5CC[C@]43C)[C@H]12", "assay": "LPS-induced NO production, inhibitor, Griess reaction", "conditions": "24 h, with: 100 ng/mL LPS", "quantity": "EC50", "value": "9 ± 1 µM"}
{"Structure (SMILES)": "Clc1ccc2[nH]c(-c3ccccc3)cc2c1", "assay": "sulforhodamine B", "conditions": "50 µM, 20 h", "how to read": "relative to: vehicle", "quantity": "viability", "value": "77.8 ± 2.9%"}
{"Structure (SMILES)": "O=C(CSc1nnc(-c2ccc(NC(=O)c3cccnc3)cc2)o1)Nc1ccc([N+](=O)[O-])cc1", "assay": "IL-6 release, inhibitor, ELISA", "conditions": "LPS-stimulated", "quantity": "IC50", "value": "5.63 µM"}
{"Structure (SMILES)": "Nc1ccc2[nH]c(-c3ccccc3)cc2c1", "assay": "sulforhodamine B", "conditions": "50 µM, 20 h", "how to read": "relative to: vehicle", "quantity": "viability", "value": "100 ± 6.7%"}
{"Structure (SMILES)": "Nn1c(SCC(=O)Nc2ccc([N+](=O)[O-])cc2)nnc1-c1ccc(NC(=O)c2cccnc2)cc1", "assay": "IL-6 release, inhibitor, ELISA", "conditions": "LPS-stimulated", "quantity": "IC50", "value": "9.68 µM"}
{"note": "For quick reference, copied from above:"}
{"Structure (SMILES)": "O=C(CSc1nnc(-c2ccc(NC(=O)c3cccnc3)cc2)o1)Nc1ccc([N+](=O)[O-])cc1", "assay": "IL-6 release, inhibitor, ELISA", "conditions": "LPS-stimulated", "quantity": "IC50", "value": "5.63 µM"}
{"Structure (SMILES)": "Fc1ccc(-c2cc3ccccc3[nH]2)cc1", "assay": "sulforhodamine B", "conditions": "50 µM, 20 h", "how to read": "relative to: vehicle", "quantity": "viability", "value": "69.7 ± 3.7%"}
